Measured values collected from several papers.
Each line is one published result; not all experiments were run side by side. Numbers after ± are the reported error.
Caspase-2: Caspase-2 (Homo sapiens, UniProt P42575)

CC(=O)N[C@@H](CC(=O)O)C(=O)N[C@@H](CCCNC(=N)N)C(=O)N[C@H](C(=O)N[C@H](C=O)CC(=O)O)[C@@H](C)O — Ki (Caspase-2; enzyme activity, inhibitor, fluorescence; pH 6.5): 1580 nM
C=CCNC(=O)[C@H](CCc1ccccc1)NC(=O)[C@H](CC(=O)NCC(C)(C)C)NC(=O)CCc1ccccc1 — IC50 (Proteasome subunit beta type-3/PSMB7 (Homo sapiens, UniProt P49720+Q99436); inhibitor): > 100000 nM
COc1cc(CNC(=O)C[C@H](C)CCC=C(C)C)ccc1OCc1cn(-c2ccc(Br)cc2)nn1 — growth percent (ACHN; SRB; 10 µM, 48 h): 56.4%
CCOc1cncc(-c2ccc(NC(=O)C(CC)c3ccnc(NS(=O)(=O)C4CC4)n3)nc2)n1 (centres unmarked) — IC50 (Ctps1 (Mus musculus, UniProt P70698, I250T); cell growth; CTPS-null Jurkat expressing Ctps1; 3 d): 421 nM
COc1ccc2c(c1)CC[C@H]1[C@@H]3[C@H](OCCCO)CC(=O)[C@@]3(C)CC[C@H]21 — IC50 (HSD17B1 (Homo sapiens, UniProt P14061); enzyme activity, inhibitor, radiometric): 2700 nM
CC[C@H]1[C@@H](O)[C@@H]2[C@H](CC[C@]3(C)[C@@H]([C@H](C)CCOS(=O)(=O)[O-])CC[C@@H]23)[C@@]2(C)CC[C@@H](O)C[C@@H]12.[Na+] — steatosis area (digital image analysis; ob/ob NASH mouse model, liver; oral, 3 mg/kg once daily, 8 weeks; relative to: area): 40.6 ± 1.6%
CC[C@H](C)[C@H](NC(=O)[C@H](CCCNC(=N)N)NC(=O)[C@H](CCCCN)NC(=O)[C@@H]1CCCN1C(=O)[C@H](CO)NC(C)=O)C(=O)N[C@@H](C)C(=O)N[C@@H](CCCCN)C(=O)N[C@@H](CCCNC(=N)N)C(=O)N[C@@H](CCCNC(=N)N)C(=O)N[C@@H](CO)C(N)=O — IC50 (N-terminal Xaa-Pro-Lys N-methyltransferase 1 (Homo sapiens, UniProt Q9BV86); methyltransferase activity, inhibitor, SAHH-coupled fluorescence; 60 min, 1% DMSO, double pin transfer, added: RCC1-6 peptide 3 µM, SAM 100 µM): 13800 nM
CC(C)Sc1ccc(SC(C)C)c(O)c(=O)c1O — IC50 (Ribonuclease HI (rnhA, Escherichia coli, UniProt P0A7Y4); enzyme activity, inhibitor): 3500 nM
Nc1cc(COc2c(Cl)cc(C[C@H](N)C(=O)O)cc2Cl)c2oc(-c3ccccc3)nc2c1 — IC50 (SLC7A5 (Homo sapiens, UniProt Q01650); transporter uptake, inhibitor, radiometric): 100 to 200 nM
CN(C)C(=O)C1CN1S(=O)(=O)c1ccc(C2CCCCC2)cc1 (centres unmarked) — IC50 (PDIA3 (Homo sapiens, UniProt P30101); enzyme activity, inhibitor, absorbance; pH 7.6): 12800 nM
CC[C@H](C)[C@H](NC(=O)[C@H](CC(C)C)NC(=O)[C@H](CCCNC(=N)N)NC(=O)c1ccc(CN2CCN(C)CC2)cc1)C(=O)N[C@@H](Cc1ccccc1)C(N)=O — IC50 (G1/S-specific cyclin-D1, with CDK4 (Homo sapiens, UniProt P24385); binding to cyclin groove, inhibitor, fluorescence polarization competition): 11300 ± 1480 nM
CC[C@H](C)[C@H](NC(C)=O)C(=O)N[C@H](C(=O)N[C@H](C(=O)N[C@@H](CCCCNC(C)=O)C(=O)N[C@H](C=O)CC(=O)O)C(C)C)[C@@H](C)O — Ki (Caspase-2; enzyme activity, inhibitor, fluorescence; pH 6.5): 501 nM
NCC(=O)Oc1ccc2c(=O)c(Oc3ccccc3)coc2c1 — IC50 (CDK9 (Homo sapiens, UniProt P50750); enzyme activity, inhibitor, ATP luminescence): 3900 nM
N=C(N)NCCC[C@H](NC(=O)[C@@H]1CCCN1C(=O)[C@H](CC(N)=O)NC(=O)[C@H](CCCNC(=N)N)NC(=O)[C@@H]1CCCN1C(=O)[C@H](CCCCN)NC(=O)[C@H](CCCCN)NC(=O)[C@H](CCC(N)=O)NC(=O)[C@H](CC(=O)O)NC(=O)[C@@H](N)Cc1c[nH]c2ccccc12)C(=O)O — IC50 (Neuropilin-1 (NRP1, Homo sapiens, UniProt O14786); inhibitor, plate binding; 1 h, 25 °C): 4700 nM
[64Cu+2].c1ccc(CNCc2ccc(CN3CCCN4CCNCCCN(CC4)CC3)cc2)nc1 — tissue uptake (CXCR4; NOD/SCID mouse, U87 and U87-stb-CXCR4 xenografts, blood; iv, 120 min, ex vivo): 1.51 ± 0.24 %ID/g
Cc1cc(C)c(S(=O)(=O)Nc2ccc3c(c2)nc(CCCCCCCNC(=O)CCCCCN2CCN(c4ccc5c(c4)C(=O)N(C4CCC(=O)NC4=O)C5=O)CC2)n3Cc2ccccc2)c(C)c1 (centres unmarked) — IC50 (NR1I2 (Homo sapiens, UniProt O75469); ligand displacement, TR-FRET): 1210 nM
O=C(O)c1ccc(-c2ccc(O)cc2)c2c1C=C(c1ccc(O)cc1)OC2(c1ccc(O)cc1)c1ccc(O)cc1 — IC50 (PDE4D (Homo sapiens, UniProt Q08499); enzyme activity, inhibitor, fluorescence): 40 nM
COc1cc(CNC(=O)C[C@H](C)CCC=C(C)C)ccc1OCc1cn(-c2ccc([N+](=O)[O-])cc2)nn1 — growth percent (ACHN; SRB; 10 µM, 48 h): 72.7%
CNC(=O)C(CS)N1C(=O)c2ccc(N(C)C)cc2C1=O (centres unmarked) — IC50 (blaNDM-1 (Klebsiella pneumoniae, UniProt C7C422); enzyme activity, inhibitor; pH 7): 8200 nM
Cn1c2c(c3ccc(Cl)c(Cl)c31)C(C#N)C1(CCNCC1)NC2=O (racemic) — IC50 (RPS6KB1 (Homo sapiens, UniProt P23443); enzyme activity, inhibitor): 200 nM

Some of these lines once more:
CC[C@H](C)[C@H](NC(=O)[C@H](CCCNC(=N)N)NC(=O)[C@H](CCCCN)NC(=O)[C@@H]1CCCN1C(=O)[C@H](CO)NC(C)=O)C(=O)N[C@@H](C)C(=O)N[C@@H](CCCCN)C(=O)N[C@@H](CCCNC(=N)N)C(=O)N[C@@H](CCCNC(=N)N)C(=O)N[C@@H](CO)C(N)=O — IC50 (N-terminal Xaa-Pro-Lys N-methyltransferase 1 (Homo sapiens, UniProt Q9BV86); methyltransferase activity, inhibitor, SAHH-coupled fluorescence; 60 min, 1% DMSO, double pin transfer, added: RCC1-6 peptide 3 µM, SAM 100 µM): 13800 nM
CC(C)Sc1ccc(SC(C)C)c(O)c(=O)c1O — IC50 (Ribonuclease HI (rnhA, Escherichia coli, UniProt P0A7Y4); enzyme activity, inhibitor): 3500 nM
Nc1cc(COc2c(Cl)cc(C[C@H](N)C(=O)O)cc2Cl)c2oc(-c3ccccc3)nc2c1 — IC50 (SLC7A5 (Homo sapiens, UniProt Q01650); transporter uptake, inhibitor, radiometric): 100 to 200 nM
